Experimental data from different studies.
Parts stem from different laboratories: compare values within a part only. Values joined by “and” are separate records of one study, mostly repeats; a detail may differ.

Set 1
Organism: Sarcocystis neurona
Observed: parasite activity
Concentration: 10 µM
Time: 96 h
Endpoint: activity class
CC(C[N+](C)(C)C)OC(N)=O (stereo not drawn): inactive
C[C@H]1c2cccc(O)c2C(=O)C2=C(O)[C@]3(O)C(=O)C(C(N)=O)=C(O)[C@@H](N(C)C)[C@@H]3[C@@H](O)[C@@H]21: inactive
CC(c1cc2ccccc2s1)N(O)C(N)=O (stereo not drawn): inactive
CCN(CC)CC1CCCCN1CC(=O)N1c2ccccc2C(=O)Nc2cccnc21 (stereo not drawn): inactive

Set 2
Structure (SMILES): COc1ccc(-c2c(Nc3ccccn3)[nH]c3c(C4=CCCCC4)c(-c4ccccc4)nn3c2=O)cc1
Technique: LC-MS/MS
Measured: methionine
Species: human
Matrix: plasma
Route: oral
Endpoint: change from baseline
50 mg once daily: 86200 ng/mL and 92700 ng/mL and 32900 ng/mL
150 mg once daily: 82500 ng/mL and 221000 ng/mL and 102000 ng/mL and 190000 ng/mL and 103000 ng/mL
400 mg once daily: 119000 ng/mL and 70300 ng/mL and 103000 ng/mL and 122000 ng/mL and 56900 ng/mL and 43000 ng/mL

Single results of other studies
CC(C)n1cnc(-c2ccc(F)cc2)c1-c1ncc(C(=O)Nc2ccc(N3CCN(C)CC3)cc2)[nH]1  patients with drug-induced liver injury (human, idiopathic pulmonary fibrosis; 60 mg once daily, trial, treatment-emergent): 0%
COc1cc(C(=O)N2CCC(N3CCN(C)CC3)CC2)ccc1Nc1ncc2c(n1)N(C)c1ccccc1C(=O)N2C  half-life (mouse, plasma; intravenous, 1 mg/kg): 4.47 h

Repeated from above (set 1):
C[C@H]1c2cccc(O)c2C(=O)C2=C(O)[C@]3(O)C(=O)C(C(N)=O)=C(O)[C@@H](N(C)C)[C@@H]3[C@@H](O)[C@@H]21: inactive
